Results collected from several papers.
A part holds a random share of what one study measured. Substitutions count along the parent as printed.
Sequence of UniProt Q9H0Z9 (10-130, looked up): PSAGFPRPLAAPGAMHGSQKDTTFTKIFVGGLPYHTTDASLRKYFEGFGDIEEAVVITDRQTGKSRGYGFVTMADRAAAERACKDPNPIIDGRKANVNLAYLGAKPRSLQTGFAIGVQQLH

Block 1
Target: POU, POU domain (Salpingoeca helianthica)
Method: Spec-seq
Form: double-stranded DNA, one strand shown
Sample: in vitro
Tested at: not given
Notes: whole probe, mean of replicates
Baseline: not given
Direction: lower = stronger binding
Measurement: relative binding energy
All sequences stand within: GAGTCGTCTCGTCAGCAC … CCGTAGAGCACTCAGGTC
Residues (chain): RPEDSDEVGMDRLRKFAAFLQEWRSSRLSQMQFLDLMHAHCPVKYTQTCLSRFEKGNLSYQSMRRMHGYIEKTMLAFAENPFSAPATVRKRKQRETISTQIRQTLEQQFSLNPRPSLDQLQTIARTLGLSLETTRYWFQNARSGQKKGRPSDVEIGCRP
ATGCGTGG: 1.37 ln ratio
CAAATAAT: 0.0512 ln ratio
CGTTTAAT: -0.407 ln ratio
ATCCTGAT: 1.25 ln ratio
AATATAAT: -0.0527 ln ratio
AGTTTAAT: -0.0993 ln ratio
ATGCATGT: 1.28 ln ratio
ATGCCGAT: 1.52 ln ratio

Block 2
Target: ABI1, truncated, D143A, DHFR fusion (Arabidopsis thaliana)
Method: DHFR PCA, deep sequencing
Sample: yeast
Notes: methotrexate growth selection, single substitutions
Together with: (+)-ABA 200 µM
Baseline: wild-type fitted maximum
Direction: higher = stronger binding
Measurement: relative binding score
Starting sequence: PYL1, truncated, DHFR fusion (Arabidopsis thaliana); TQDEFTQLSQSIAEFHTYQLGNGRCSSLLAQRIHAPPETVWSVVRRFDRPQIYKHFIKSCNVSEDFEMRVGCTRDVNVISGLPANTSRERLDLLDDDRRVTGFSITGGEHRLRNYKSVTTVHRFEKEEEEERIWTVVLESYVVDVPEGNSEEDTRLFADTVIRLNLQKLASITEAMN
S42Y: 76.1%
F56N: 3.33%
S104F: 38.5%
S150I: 70.9%
D159T: 61.1%
N61Y: 97%
F124T: 87.4%
D48L: 2.7%

Further values, each from its own experiment
Cc1scc2c1N(C(=O)CN1CCN(C)CC1)c1ccccc1NC2=O  nuclei count (mouse MPNST tumor cells; high-content nuclear imaging, refers to: cell number; 10 µM, 12 h, mean of 2 replicates; baseline: plate mean, higher = more cells): 1.46 z-score
CC(C)(Oc1ccc(Cl)cc1)C(=O)OCCOC(=O)c1cccnc1  viability (A-375; 100 µM, 36 h): 95.6%
CC(=O)Nc1c(I)c(C(=O)N[C@H]2C(O)O[C@H](CO)[C@@H](O)[C@@H]2O)c(I)c(N(C)C(C)=O)c1I (some centres unmarked)  nuclei count (mouse MPNST tumor cells; high-content nuclear imaging, refers to: cell number; 10 µM, 12 h, mean of 2 replicates; baseline: plate mean, higher = more cells): 1.4 z-score
AAAAAAAA (biotin)  signal ratio (RNA-binding protein 38, RRM domain (RBM38, Homo sapiens, UniProt Q9H0Z9, residues 10-130); protein domain microarray; RNA, in vitro; not given, poly(A) 8-mer RNA, whole probe, immobilized GST-fusion domains, most near background; baseline: GST loading signal, higher = stronger binding): 0.035

Repeated from above (block 2):
N61Y: 97%
F124T: 87.4%
D48L: 2.7%
